Experimental data gathered from unrelated publications.
Numbers after ± are the reported error.

CSCC[C@H](NC(=O)[C@H](CC(C)C)NC(=O)[C@H](Cc1c[nH]cn1)NC(=O)CNC(=O)[C@@H](NC(=O)[C@H](C)NC(=O)[C@H](Cc1c[nH]c2ccccc12)NC(=O)[C@H](CCC(N)=O)NC(=O)CNC(=O)[C@H](CO)NC(=O)CNC(=O)CCCCCCCNC(=O)CCC(=O)Nc1ccc(CNC23CNCCNCC(N)(CNCCNC2)CNCCNC3)cc1)C(C)C)C(N)=O [copper-64 labelled] — tissue uptake (female SCID mice, PC-3 xenograft, kidney; intravenous, 0.6 MBq, 24 h): 4.73 ± 0.198 %ID/g
N=C(N)NCCC[C@H](NC(=O)[C@H](CCCCN)NC(=O)[C@H](CCC(N)=O)NC(=O)CCOCCOCCOCCNC(=O)CN1CCN(CC(=O)O)CCN(CC(=O)O)CCN(CC(=O)O)CC1)C(=O)N[C@@H](CCCCN)C(=O)N[C@@H](CCCNC(=N)N)C(=O)N[C@@H](CCCCN)C(=O)N[C@@H](CCCCN)C(=O)N[C@@H](CO)C(=O)N[C@@H](CCCNC(=N)N)C(=O)N[C@@H](Cc1ccc(O)cc1)C(=O)N[C@@H](CCCCN)C(=O)N[C@@H](CO)C(=O)O [copper-64 labelled] — tissue uptake (C57BL/6 mice, B16-F10 tumour, liver; intravenous, 60 min): 3.93 ± 0.42 %ID/g
CC(C)C[C@H](NC(=O)[C@H](Cc1ccc(O)cc1)NC(=O)[C@@H](CCCNC(=N)N)NC(=O)[C@@H](CO)NC(=O)[C@H](Cc1ccccc1)NC(=O)[C@H](CC1CCCCC1)NC(=O)[C@H](CC(=O)O)NC(=O)CCC(C(=O)O)N1CCCN2CCN(CCCN(CC(=O)O)CC2)CC1)C(=O)N[C@@H](Cc1c[nH]c2ccccc12)C(=O)N[C@@H](CO)C(=O)O (stereo partly shown) [copper-64 labelled] — tissue uptake (female NMRI nude mice, intestine; 22 h p.i.): 1.3 ± 0.1 %ID/g
N=C(N)NCCC[C@@H]1NC(=O)[C@H](CCCCNC(=O)CCOCCOCCOCCOCCNC(=O)CN2CCN(CC(=O)O)CCN(CC(=O)O)CCN(CC(=O)O)CC2)NC(=O)[C@@H](Cc2ccccc2)NC(=O)[C@H](CC(=O)O)NC(=O)CNC1=O [indium-111 labelled] — tissue uptake (athymic nude mice, female, U-87 MG glioma xenograft, U-87 MG tumour; intravenous, 3 µCi, 4 h): 2.56 ± 0.4 %ID/g
N=C(N)NCCC[C@@H]1NC(=O)[C@H](CCCCNC(=O)CNC(=O)CNC(=O)CNC(=O)CC[C@H](NC(=O)CNC(=O)CNC(=O)CNC(=O)[C@H](CCCCNC(=O)c2ccc(NN)nc2)NC(=O)c2ccc(NN)nc2)C(=O)NCC(=O)NCC(=O)NCC(=O)NCCCC[C@@H]2NC(=O)[C@@H](Cc3ccccc3)NC(=O)[C@H](CC(=O)O)NC(=O)CNC(=O)[C@H](CCCNC(=N)N)NC2=O)NC(=O)[C@@H](Cc2ccccc2)NC(=O)[C@H](CC(=O)O)NC(=O)CNC1=O [technetium-99m labelled] — tissue uptake (female athymic nude mice, brain; intravenous, 0.1 MBq, 1 h, U-87 MG glioma xenograft): 0.13 ± 0.03 %ID/g
N=C(N)NCCC[C@@H]1NC(=O)[C@H](CCCCNC(=O)CC[C@H](NC(=O)CCOCCOCCOCCOCCNC(=O)CN2CCN(CC(=O)O)CCN(CC(=O)O)CCN(CC(=O)O)CC2)C(=O)NCCCC[C@@H]2NC(=O)[C@@H](Cc3ccccc3)NC(=O)[C@H](CC(=O)O)NC(=O)CNC(=O)[C@H](CCCNC(=N)N)NC2=O)NC(=O)[C@@H](Cc2ccccc2)NC(=O)[C@H](CC(=O)O)NC(=O)CNC1=O [indium-111 labelled] — tissue uptake (athymic nude mice, female, U-87 MG glioma xenograft, U-87 MG tumour; intravenous, 3 µCi, 1 h): 4.95 ± 0.39 %ID/g
N=C(N)NCCC[C@@H]1NC(=O)[C@H](CCCCNC(=O)CCOCCOCCOCCOCCNC(=O)CC[C@H](NC(=O)CCOCCOCCOCCOCCNC(=O)[C@H](CCCCNC(=O)c2ccc(NN)nc2)NC(=O)c2ccc(NN)nc2)C(=O)NCCOCCOCCOCCOCCC(=O)NCCCC[C@@H]2NC(=O)[C@@H](Cc3ccccc3)NC(=O)[C@H](CC(=O)O)NC(=O)CNC(=O)[C@H](CCCNC(=N)N)NC2=O)NC(=O)[C@@H](Cc2ccccc2)NC(=O)[C@H](CC(=O)O)NC(=O)CNC1=O [technetium-99m labelled] — tissue uptake (athymic nude mice, intestine; intravenous, 60 min, blocking, with: excess RGD2 14 mg/kg co-injected): 4.41 ± 2.07 %ID/g
N=C(N)NCCC[C@@H]1NC(=O)[C@H](CCCCNC(=O)CCOCCOCCOCCOCCNC(=O)CC[C@H](NC(=O)CCOCCOCCOCCOCCNC(=O)CC[C@H](NC(=O)CN2CCN(CC(=O)O)CCN(CC(=O)O)CCN(CC(=O)O)CC2)C(=O)NCCOCCOCCOCCOCCC(=O)N[C@@H](CCC(=O)NCCOCCOCCOCCOCCC(=O)NCCCC[C@@H]2NC(=O)[C@@H](Cc3ccccc3)NC(=O)[C@H](CC(=O)O)NC(=O)CNC(=O)[C@H](CCCNC(=N)N)NC2=O)C(=O)NCCOCCOCCOCCOCCC(=O)NCCCC[C@@H]2NC(=O)[C@@H](Cc3ccccc3)NC(=O)[C@H](CC(=O)O)NC(=O)CNC(=O)[C@H](CCCNC(=N)N)NC2=O)C(=O)NCCOCCOCCOCCOCCC(=O)NCCCC[C@@H]2NC(=O)[C@@H](Cc3ccccc3)NC(=O)[C@H](CC(=O)O)NC(=O)CNC(=O)[C@H](CCCNC(=N)N)NC2=O)NC(=O)[C@@H](Cc2ccccc2)NC(=O)[C@H](CC(=O)O)NC(=O)CNC1=O [indium-111 labelled] — tissue uptake (female athymic nude mice, blood; intravenous, 3 µCi, 72 h, U-87 MG glioma xenograft): 0.06 %ID/g
CSCC[C@H](NC(=O)[C@H](CC(C)C)NC(=O)[C@H](Cc1c[nH]cn1)NC(=O)CNC(=O)[C@@H](NC(=O)[C@H](C)NC(=O)[C@H](Cc1c[nH]c2ccccc12)NC(=O)[C@H](CCC(N)=O)NC(=O)CCCCCCCNC(=O)CCC(=O)Nc1ccc(CNC23CNCCNCC(N)(CNCCNC2)CNCCNC3)cc1)C(C)C)C(N)=O [copper-64 labelled] — tissue uptake (female SCID mice, PC-3 xenograft, spleen; intravenous, 0.6 MBq, 24 h): 0.97 ± 0.184 %ID/g
N=C(N)NCCC[C@@H]1NC(=O)[C@H](CCCCNC(=O)CC[C@H](NC(=O)[C@H](CCCCNC(=O)c2ccc(NN)nc2)NC(=O)c2ccc(NN)nc2)C(=O)NCCCC[C@@H]2NC(=O)[C@@H](Cc3ccccc3)NC(=O)[C@H](CC(=O)O)NC(=O)CNC(=O)[C@H](CCCNC(=N)N)NC2=O)NC(=O)[C@@H](Cc2ccccc2)NC(=O)[C@H](CC(=O)O)NC(=O)CNC1=O [technetium-99m labelled] — tissue uptake (female athymic nude mice, kidneys; intravenous, 0.1 MBq, 1 h, U-87 MG glioma xenograft): 12.2 ± 0.93 %ID/g

Repeated from above:
CSCC[C@H](NC(=O)[C@H](CC(C)C)NC(=O)[C@H](Cc1c[nH]cn1)NC(=O)CNC(=O)[C@@H](NC(=O)[C@H](C)NC(=O)[C@H](Cc1c[nH]c2ccccc12)NC(=O)[C@H](CCC(N)=O)NC(=O)CCCCCCCNC(=O)CCC(=O)Nc1ccc(CNC23CNCCNCC(N)(CNCCNC2)CNCCNC3)cc1)C(C)C)C(N)=O [copper-64 labelled] — tissue uptake (female SCID mice, PC-3 xenograft, spleen; intravenous, 0.6 MBq, 24 h): 0.97 ± 0.184 %ID/g
